# Published values gathered from unrelated publications.
# Protocols differ between the studies behind these lines. ± marks the error that the study gave.
SMILES,cell line,test,test system,conditions,IC50
Cc1sc2c(c1C)C(c1ccc(NC(=O)c3cc([N+](=O)[O-])ccc3F)cc1)=N[C@@H](CC(=O)OC(C)(C)C)c1nnc(C)n1-2,Ramos,"cell growth or viability, ATP luminescence",,72 h,4e-06 µM
O=C(Cc1ccc(Cl)cc1)N1CCN(CC(OCc2ccc3ccccc3c2)c2ccc(Cl)cc2Cl)CC1 (stereo not shown),MDA-MB-468,"cell growth or viability, MTT",,24 h,15 µM
CC1CCC2C(C)C(OC(=O)CCC(=O)OC3C(C)OC(n4cc(F)c(=O)[nH]c4=O)C3OC(=O)CCC(=O)OC3OC4OC5(C)CCC6C(C)CCC(C3C)C46OO5)OC3OC4(C)CCC1C32OO4 (stereo not shown),MCF-10A,"cell growth or viability, CCK-8",,,8.47 µM
CC[C@H](C)[C@@H]1NC(=O)[C@@H]2CCCN2C(=O)[C@H](C)NC(=O)[C@H](CC(C)C)NC(=O)[C@@H]2CCCN2C(=O)[C@H](C)NC(=O)[C@@H]2CSSC[C@H](NC(=O)[C@H](C)NC(=O)[C@H](C)NC(=O)[C@H](Cc3ccc(O)cc3)NC(=O)[C@@H]3CCCN3C(=O)CNC(=O)[C@H](Cc3c[nH]c4ccccc34)NC1=O)C(=O)N[C@@H](CC(C)C)C(=O)N[C@@H](CO)C(=O)N[C@@H](C)C(=O)N[C@H]1CSSC[C@H](NC(=O)[C@H](C(C)C)NC(=O)[C@@H]3CCCN3C(=O)CNC(=O)CNC(=O)CNC(=O)[C@H](C)NC(=O)[C@H](C)NC(=O)[C@H](CC(C)C)NC1=O)C(=O)N[C@@H](CC(C)C)C(=O)N[C@@H](C)C(=O)N[C@@H](C(C)C)C(=O)N2,U-251,,,,> 128 µg/mL
CC(=O)N[C@H](C(=O)N[C@@H](CCCNC(=N)N)C(=O)N[C@@H](CCCCN)C(=O)N[C@@H](CCCNC(=N)N)C(=O)N[C@H](C(=O)N[C@@H](CC(C)C)C(=O)N[C@@H](CCCNC(=N)N)C(=O)N[C@]1(C)CCCCCCC=CCCC[C@@](C)(C(=O)N[C@H](C(=O)N[C@@H](CCC(=O)O)C(N)=O)C(C)C)NC(=O)[C@H](CCC(=O)O)NC(=O)[C@H](CCCNC(=N)N)NC(=O)[C@H](CCC(=O)O)NC(=O)[C@H](CCC(N)=O)NC(=O)[C@H](CC(C)C)NC(=O)[C@H](CC(C)C)NC1=O)[C@@H](C)O)C(C)C,H2030 (wild-type EGFR),"cell viability, ATP luminescence",,18 h,> 100 µM
Cc1cc(Nc2nc(C[C@@]3(C(=O)O)CCN(Cc4cccc(Cl)c4F)[C@H](C)C3)cc(C)c2F)[nH]n1,HCT-15,"cell growth or viability, ATP luminescence",,5 days,1.75 µM
CC(=O)[O][Pt]([NH2])([NH2])([Cl])([Cl])[O]C(=O)C(Cl)Cl,C13* cisplatin-resistant ovarian,"cytotoxicity, MTT",,72 h,0.94 ± 0.2 µM
Cc1cc(Oc2nc(N3CC[C@@H](c4ccncc4)C3)ncc2F)[nH]n1,NCI-H292,cell proliferation,lung cancer,,47.9 µM
CC(=O)N[C@H](C(=O)N[C@@H](CCCNC(=N)N)C(=O)N[C@@H](CCCCN)C(=O)N[C@@H](CCCNC(=N)N)C(=O)N[C@@]1(C)CCCC=CCCC[C@@](C)(C(=O)N[C@@H](CC(C)C)C(=O)N[C@@H](CCC(N)=O)C(=O)N[C@@H](CCC(=O)O)C(=O)N[C@@H](CCCNC(=N)N)C(=O)N[C@@H](CCC(=O)O)C(=O)N[C@@H](CC(C)C)C(=O)N[C@H](C(=O)N[C@@H](CCC(=O)O)C(N)=O)C(C)C)NC(=O)[C@H](CCCNC(=N)N)NC(=O)[C@H](CCCNC(=N)N)NC(=O)[C@H](CC(C)C)NC1=O)C(C)C,H1975 (EGFR L858R/T790M),"cell viability, ATP luminescence",,18 h,32.3 ± 9.37 µM
CCC1=C(C)C2=C(c3ccc(P(=NC(=O)c4ccccn4)(c4ccccc4)c4ccccc4)cc3)c3c(C)c(CC)c(C)n3[B-](C)(C)[N+]2=C1C,MCF-10A,"cell growth or viability, MTT",,,33.7 µM
Cc1ccc(C(C)C)cc1.Cc1ccc(C(C)C)cc1.Cc1ccc(C(C)C)cc1.Cc1ccc(C(C)C)cc1.O=S(=O)(O)C(F)(F)F.O=S(=O)(O)C(F)(F)F.O=S(=O)(O)C(F)(F)F.O=S(=O)(O)C(F)(F)F.c1ccc2c3c4ccccc4c(c2c1)-c1cn(nn1)-c1cc[n+](cc1)[Ru-]1[O]c2ccc4c5c(ccc(c25)=[O+]1)=[O+][Ru-]([O]4)[n+]1ccc(cc1)-n1cc(nn1)-c1c2ccccc2c(c2ccccc12)-c1cn(nn1)-c1cc[n+](cc1)[Ru-]1[O]c2ccc4c5c(ccc(c25)=[O+]1)=[O+][Ru-]([O]4)[n+]1ccc(cc1)-n1cc-3nn1,HepG2,"cell growth, MTT",,"24 h, 20 µM preincubated in medium 48 h at 37 °C",6.9 ± 0.2 µM
N[C@H](C(=O)N1CCCC1)C1CCN(c2nccc3c(-c4ncc(Cl)cc4Cl)cccc23)CC1,human isolated neutrophils,"histone H3 citrullination, inhibitor, flow cytometry, measured: citrullinated histone H3",,together with: ionomycin,1.04 µM
CC(C)C12OC1C1OC13C1(C)CCC4=C(COC4=O)C1CC1OC13C2OC(=O)CCCOC1OC(CO)C(O)C(O)C1O (stereo not shown),primary normal human cells,"cell viability, XTT",,,6.8 µM
O=C(c1cc(Cc2n[nH]c(=O)c3ccccc23)ccc1F)N1CC(CNC2CC2)C1,HCC1569,,,,0.0008 µM
CC(=O)N[C@H](C(=O)N[C@@H](CCCNC(=N)N)C(=O)N[C@@H](CCCCN)C(=O)N[C@@H](CCCNC(=N)N)C(=O)N[C@]1(C)CCCC=CCCC[C@@](C)(C(=O)N[C@@H](CC(C)C)C(=O)N[C@@H](CC(C)C)C(=O)N[C@@H](CCC(N)=O)C(=O)N[C@@H](CCC(=O)O)C(=O)N[C@@H](CCCNC(=N)N)C(=O)N[C@@H](CCC(=O)O)C(=O)N[C@@H](CC(C)C)C(=O)N[C@H](C(=O)N[C@@H](CCC(=O)O)C(N)=O)C(C)C)NC(=O)[C@H](CCCNC(=N)N)NC(=O)[C@H](CC(C)C)NC1=O)C(C)C,H2030 (wild-type EGFR),"cell viability, ATP luminescence",,18 h,43.4 ± 2.51 µM
Cc1cc(C)cc(COc2cc3c(cc2OCc2cc(C)cc(C)c2)C2CC(O)(Cc4cn(CCOCCOCCOCCOc5cccc6c5C(=O)N(C5CCC(=O)NC5=O)C6=O)nn4)CC(C)N2CC3)c1 (racemic),ASPC1,"cell growth or viability, MTT",,,1.96 µM

# A few entries again:
SMILES,cell line,test,test system,conditions,IC50
N[C@H](C(=O)N1CCCC1)C1CCN(c2nccc3c(-c4ncc(Cl)cc4Cl)cccc23)CC1,human isolated neutrophils,"histone H3 citrullination, inhibitor, flow cytometry, measured: citrullinated histone H3",,together with: ionomycin,1.04 µM
CC(C)C12OC1C1OC13C1(C)CCC4=C(COC4=O)C1CC1OC13C2OC(=O)CCCOC1OC(CO)C(O)C(O)C1O (stereo not shown),primary normal human cells,"cell viability, XTT",,,6.8 µM
